Experimental data of several laboratories.
Every numbered part comes from another study and shows a few of its results, in no order.
Chain of UniProt Q16659 (whole entry, looked up): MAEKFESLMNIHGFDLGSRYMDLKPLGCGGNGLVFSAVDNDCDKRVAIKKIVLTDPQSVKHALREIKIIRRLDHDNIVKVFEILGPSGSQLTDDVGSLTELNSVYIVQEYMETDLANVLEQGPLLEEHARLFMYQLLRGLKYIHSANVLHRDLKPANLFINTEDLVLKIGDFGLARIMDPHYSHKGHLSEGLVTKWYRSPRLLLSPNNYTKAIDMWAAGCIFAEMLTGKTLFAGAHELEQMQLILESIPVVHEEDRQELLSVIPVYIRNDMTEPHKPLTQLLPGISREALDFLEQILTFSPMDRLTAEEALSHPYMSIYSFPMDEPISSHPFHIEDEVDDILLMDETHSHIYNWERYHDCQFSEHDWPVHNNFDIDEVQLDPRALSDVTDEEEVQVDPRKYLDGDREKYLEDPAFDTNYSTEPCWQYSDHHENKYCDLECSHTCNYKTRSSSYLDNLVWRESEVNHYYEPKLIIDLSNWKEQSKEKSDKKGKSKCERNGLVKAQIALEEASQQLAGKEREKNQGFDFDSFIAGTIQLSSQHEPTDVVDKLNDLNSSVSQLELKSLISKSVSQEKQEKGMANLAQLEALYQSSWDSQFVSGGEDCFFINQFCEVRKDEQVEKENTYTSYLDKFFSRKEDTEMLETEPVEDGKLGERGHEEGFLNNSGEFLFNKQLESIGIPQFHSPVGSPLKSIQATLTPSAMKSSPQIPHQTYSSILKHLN
Chain of UniProt O60307 (whole entry, looked up): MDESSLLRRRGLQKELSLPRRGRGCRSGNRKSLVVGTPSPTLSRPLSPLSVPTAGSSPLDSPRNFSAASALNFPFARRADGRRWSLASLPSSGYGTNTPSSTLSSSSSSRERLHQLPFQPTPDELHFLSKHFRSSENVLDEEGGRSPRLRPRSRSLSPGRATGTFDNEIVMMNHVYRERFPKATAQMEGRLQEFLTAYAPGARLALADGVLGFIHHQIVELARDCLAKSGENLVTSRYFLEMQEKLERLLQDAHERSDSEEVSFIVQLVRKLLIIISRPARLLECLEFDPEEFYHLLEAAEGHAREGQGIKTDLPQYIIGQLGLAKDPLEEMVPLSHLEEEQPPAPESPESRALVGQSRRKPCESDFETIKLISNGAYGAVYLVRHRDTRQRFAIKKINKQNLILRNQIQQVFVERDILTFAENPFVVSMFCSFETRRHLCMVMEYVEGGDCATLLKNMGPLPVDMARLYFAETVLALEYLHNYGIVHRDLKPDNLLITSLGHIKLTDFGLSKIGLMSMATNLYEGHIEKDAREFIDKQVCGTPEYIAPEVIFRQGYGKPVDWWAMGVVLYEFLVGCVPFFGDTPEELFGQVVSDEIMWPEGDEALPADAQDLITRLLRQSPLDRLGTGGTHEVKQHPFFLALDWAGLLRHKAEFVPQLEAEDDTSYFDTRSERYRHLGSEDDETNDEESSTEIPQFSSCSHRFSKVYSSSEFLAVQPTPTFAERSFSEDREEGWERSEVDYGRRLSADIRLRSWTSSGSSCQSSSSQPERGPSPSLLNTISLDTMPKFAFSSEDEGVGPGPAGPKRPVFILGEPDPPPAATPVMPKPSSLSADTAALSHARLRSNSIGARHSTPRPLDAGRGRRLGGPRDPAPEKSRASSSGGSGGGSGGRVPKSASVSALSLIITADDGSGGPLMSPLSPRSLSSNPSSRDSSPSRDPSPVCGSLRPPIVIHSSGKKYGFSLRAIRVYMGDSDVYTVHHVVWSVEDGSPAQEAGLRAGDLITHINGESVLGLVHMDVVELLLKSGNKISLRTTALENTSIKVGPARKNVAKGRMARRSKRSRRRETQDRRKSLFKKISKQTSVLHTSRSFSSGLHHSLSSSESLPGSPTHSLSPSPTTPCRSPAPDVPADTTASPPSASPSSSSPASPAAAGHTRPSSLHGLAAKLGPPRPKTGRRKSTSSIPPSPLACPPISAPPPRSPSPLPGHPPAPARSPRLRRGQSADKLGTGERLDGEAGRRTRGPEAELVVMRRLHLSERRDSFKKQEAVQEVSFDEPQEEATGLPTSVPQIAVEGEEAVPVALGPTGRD
Chain of UniProt Q52WX2 (whole entry, looked up): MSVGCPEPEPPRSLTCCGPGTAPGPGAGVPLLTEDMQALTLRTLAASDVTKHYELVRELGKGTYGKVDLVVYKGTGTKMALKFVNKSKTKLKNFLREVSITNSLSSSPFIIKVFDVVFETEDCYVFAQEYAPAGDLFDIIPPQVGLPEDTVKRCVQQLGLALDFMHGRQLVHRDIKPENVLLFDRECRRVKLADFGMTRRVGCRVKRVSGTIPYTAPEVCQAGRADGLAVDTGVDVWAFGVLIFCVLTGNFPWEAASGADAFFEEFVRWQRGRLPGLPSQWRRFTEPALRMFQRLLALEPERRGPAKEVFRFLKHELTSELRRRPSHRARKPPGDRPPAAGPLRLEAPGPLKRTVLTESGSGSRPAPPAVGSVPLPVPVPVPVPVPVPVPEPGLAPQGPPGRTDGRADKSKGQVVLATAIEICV
Chain of UniProt P51812 (whole entry, looked up): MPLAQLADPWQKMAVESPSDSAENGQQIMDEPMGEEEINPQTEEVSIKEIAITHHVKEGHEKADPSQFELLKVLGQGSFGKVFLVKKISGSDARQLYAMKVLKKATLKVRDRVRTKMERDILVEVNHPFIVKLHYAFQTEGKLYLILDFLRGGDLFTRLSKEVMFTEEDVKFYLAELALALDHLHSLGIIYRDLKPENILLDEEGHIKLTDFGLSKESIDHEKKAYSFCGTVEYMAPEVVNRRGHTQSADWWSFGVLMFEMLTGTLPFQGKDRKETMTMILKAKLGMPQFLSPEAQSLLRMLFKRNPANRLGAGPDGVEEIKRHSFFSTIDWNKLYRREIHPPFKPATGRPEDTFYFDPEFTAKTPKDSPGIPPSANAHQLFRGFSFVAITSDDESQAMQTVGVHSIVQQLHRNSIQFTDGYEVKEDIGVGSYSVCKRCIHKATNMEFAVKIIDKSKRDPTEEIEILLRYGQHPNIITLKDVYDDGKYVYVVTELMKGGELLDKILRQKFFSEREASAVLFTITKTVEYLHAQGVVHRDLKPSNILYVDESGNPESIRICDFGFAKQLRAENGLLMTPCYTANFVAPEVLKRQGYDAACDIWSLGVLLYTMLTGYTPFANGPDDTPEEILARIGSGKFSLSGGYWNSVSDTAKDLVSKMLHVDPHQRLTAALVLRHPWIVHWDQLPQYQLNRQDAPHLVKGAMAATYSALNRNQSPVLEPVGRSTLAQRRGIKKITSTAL
Chain of UniProt Q96PN8 (whole entry, looked up): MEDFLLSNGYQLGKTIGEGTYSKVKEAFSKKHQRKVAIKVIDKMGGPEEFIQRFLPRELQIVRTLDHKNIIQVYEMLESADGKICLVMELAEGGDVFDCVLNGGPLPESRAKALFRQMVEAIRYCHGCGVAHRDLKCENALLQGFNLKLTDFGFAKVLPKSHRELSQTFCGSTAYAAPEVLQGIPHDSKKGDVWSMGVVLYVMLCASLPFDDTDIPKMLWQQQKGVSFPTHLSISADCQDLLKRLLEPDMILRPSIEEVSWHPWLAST

Series 1 — effect on: thermal unfolding; technique: differential scanning fluorimetry; concentration: 5.5 µM; reading: higher = more unfolded
SMILES: C[C@@H]1CN(c2ccc(-c3cc(C(=O)NCCOCCOCCOCCOCCNC(=O)Cn4cc(-c5[nH]cc(C(=O)N[C@@H](CC(N)=O)c6ccc(F)c(Cl)c6)c5-c5ccc(Cl)cc5F)cn4)ccc3F)cc2NC(=O)c2c[nH]c(=O)cc2C(F)(F)F)C[C@H](C)N1C
DCAF1: DDB1- and CUL4-associated factor 1 (DCAF1, Homo sapiens, UniProt Q9Y4B6)
Chain of UniProt Q9Y4B6 (whole entry, looked up): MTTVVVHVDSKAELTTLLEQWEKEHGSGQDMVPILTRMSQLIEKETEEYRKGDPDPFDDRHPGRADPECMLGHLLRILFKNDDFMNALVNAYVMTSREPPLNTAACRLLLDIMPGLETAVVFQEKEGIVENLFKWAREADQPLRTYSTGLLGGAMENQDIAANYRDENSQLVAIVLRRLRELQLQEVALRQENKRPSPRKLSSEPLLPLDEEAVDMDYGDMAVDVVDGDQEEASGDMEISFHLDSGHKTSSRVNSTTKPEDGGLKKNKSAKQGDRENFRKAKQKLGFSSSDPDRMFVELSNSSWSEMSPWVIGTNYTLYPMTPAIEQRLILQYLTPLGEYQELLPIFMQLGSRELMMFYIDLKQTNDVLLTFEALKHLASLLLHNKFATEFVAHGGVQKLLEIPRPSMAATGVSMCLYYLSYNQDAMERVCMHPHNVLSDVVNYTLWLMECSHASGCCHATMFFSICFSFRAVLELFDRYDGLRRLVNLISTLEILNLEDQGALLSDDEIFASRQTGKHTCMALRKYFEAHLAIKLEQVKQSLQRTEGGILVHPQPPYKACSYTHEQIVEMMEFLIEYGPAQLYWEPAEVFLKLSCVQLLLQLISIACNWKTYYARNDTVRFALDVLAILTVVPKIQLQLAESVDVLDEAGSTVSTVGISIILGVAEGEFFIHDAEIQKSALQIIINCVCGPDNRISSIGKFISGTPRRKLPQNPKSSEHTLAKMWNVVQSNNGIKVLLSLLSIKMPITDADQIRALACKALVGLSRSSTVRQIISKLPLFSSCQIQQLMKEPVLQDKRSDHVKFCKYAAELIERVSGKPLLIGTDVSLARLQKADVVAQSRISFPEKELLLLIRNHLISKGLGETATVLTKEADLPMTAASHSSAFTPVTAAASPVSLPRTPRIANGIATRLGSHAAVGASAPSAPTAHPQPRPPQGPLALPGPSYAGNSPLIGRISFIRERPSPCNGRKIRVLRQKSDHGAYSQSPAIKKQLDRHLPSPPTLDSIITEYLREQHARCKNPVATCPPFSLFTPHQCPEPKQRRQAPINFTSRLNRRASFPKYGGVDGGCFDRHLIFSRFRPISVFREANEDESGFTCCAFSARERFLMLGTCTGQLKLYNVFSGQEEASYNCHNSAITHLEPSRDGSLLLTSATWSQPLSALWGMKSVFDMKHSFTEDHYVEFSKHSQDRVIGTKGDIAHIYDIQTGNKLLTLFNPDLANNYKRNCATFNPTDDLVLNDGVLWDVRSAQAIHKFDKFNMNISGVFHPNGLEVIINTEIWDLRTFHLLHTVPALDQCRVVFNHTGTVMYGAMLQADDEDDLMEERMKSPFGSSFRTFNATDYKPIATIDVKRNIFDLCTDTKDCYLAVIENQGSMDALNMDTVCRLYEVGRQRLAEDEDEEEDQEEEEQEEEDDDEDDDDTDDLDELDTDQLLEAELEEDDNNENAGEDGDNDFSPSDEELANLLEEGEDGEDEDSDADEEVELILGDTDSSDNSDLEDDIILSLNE
WDR5: WD repeat-containing protein 5 (WDR5, Homo sapiens, UniProt P61964)
target	temperature	SYPRO Orange fluorescence [a.u.]
DCAF1	88.61 °C	36500
WDR5	61.41 °C	9590
WDR5	59.61 °C	10600
DCAF1	63.61 °C	53300
DCAF1	53.41 °C	17100
WDR5	80.21 °C	24000
WDR5	48.6 °C	14500

Series 2 — cell line: U-87 MG; concentration: concentration not given; baseline: DMSO
SMILES: CCN1/C(=C/C=C2\CCCC(/C=C/C3=[N+](CC)c4ccccc4C3(C)C)=C2NCCCCCCCCN2CCC(Nc3nc4ccccc4n3Cc3ccc(F)cc3)CC2)C(C)(C)c2ccccc21
measured	log2 fold change
TCF4 mRNA	-2.17
OIP5 mRNA	-1.78
ACACB mRNA	-0.883
LTF mRNA	5.84
SELL mRNA	-1.67
PTGER2 mRNA	-2.74
NTNG2 mRNA	1.87
FLYWCH1 mRNA	1.37
COL8A2 mRNA	-2.34
EVC2 mRNA	0.836
RDM1 mRNA	-2.65

Series 3 — concentration: 1 µM
SMILES: CC[C@@]1(c2ccccc2)C2=C(CC(C)(C)CC2=O)Nc2n[nH]cc21
target	effect on	technique	baseline	remaining binding [%]
IRAK3 (Homo sapiens, UniProt Q9Y616)	kinase binding	KINOMEscan	DMSO control	96
CDK13 (Homo sapiens, UniProt Q14004)	binding	competition with immobilised ligand	–	77
LTK (Homo sapiens, UniProt P29376)	binding	competition with immobilised ligand	–	100
CDK7 (Homo sapiens, UniProt P50613)	binding	competition with immobilised ligand	–	100
CDK2 (Homo sapiens, UniProt P24941)	kinase binding	KINOMEscan	DMSO control	91
STK17B (Homo sapiens, UniProt O94768)	kinase binding	KINOMEscan	DMSO control	99
FGFR3 (Homo sapiens, UniProt P22607, G697C)	binding	competition with immobilised ligand	–	100
COQ8B (Homo sapiens, UniProt Q96D53)	kinase binding	KINOMEscan	DMSO control	96
TGFBR2 (Homo sapiens, UniProt P37173)	binding	competition with immobilised ligand	–	100
TSSK3 (Homo sapiens, UniProt Q96PN8)	kinase binding	KINOMEscan	DMSO control	98
PIM1 (Homo sapiens, UniProt P11309)	binding	competition with immobilised ligand	–	100
PLK1 (Homo sapiens, UniProt P53350)	binding	competition with immobilised ligand	–	100
EIF2AK1 (Homo sapiens, UniProt Q9BQI3)	binding	competition with immobilised ligand	–	100
CSK (Homo sapiens, UniProt P41240)	binding	competition with immobilised ligand	–	100
CDK3 (Homo sapiens, UniProt Q00526)	kinase binding	KINOMEscan	DMSO control	99
PI4KB (Homo sapiens, UniProt Q9UBF8)	binding	competition with immobilised ligand	–	94
TNK2 (Homo sapiens, UniProt Q07912)	binding	competition with immobilised ligand	–	99
SBK1 (Homo sapiens, UniProt Q52WX2)	binding	competition with immobilised ligand	–	100
MYLK2 (Homo sapiens, UniProt Q9H1R3)	binding	competition with immobilised ligand	–	100
CAMK2A (Homo sapiens, UniProt Q9UQM7)	binding	competition with immobilised ligand	–	95

Series 4 — technique: NanoBRET; concentration: 1 µM
SMILES: COc1cc(-c2nc3ccc(C(=O)NCCCN(C)C)cc3n2C2CCC2)cc(OC)c1OC
target	target occupancy [%]
NUAK1 (Homo sapiens, UniProt O60285)	1
MAPK6 (Homo sapiens, UniProt Q16659)	-1.24
RPS6KA3 (Homo sapiens, UniProt P51812)	-5.46
MAST3 (Homo sapiens, UniProt O60307)	-0.76
WEE1 (Homo sapiens, UniProt P30291)	1.03
TNK1 (Homo sapiens, UniProt Q13470)	0.17
CDK20 (Homo sapiens, UniProt Q8IZL9)	-1.04
Cyclin-dependent kinase 15, with cyclin Y (CDK15, Homo sapiens, UniProt Q96Q40)	0.95
GAK (Homo sapiens, UniProt O14976)	1.9
AKT2 (Homo sapiens, UniProt P31751)	-1.22
NEK1 (Homo sapiens, UniProt Q96PY6)	2.18
MAPK9 (Homo sapiens, UniProt P45984)	0.89
MKNK2 (Homo sapiens, UniProt Q9HBH9)	3.83
CDKL5 (Homo sapiens, UniProt O76039)	-11.4
PRKACB (Homo sapiens, UniProt P22694)	1.56
TLK2 (Homo sapiens, UniProt Q86UE8)	-0.81
MUSK (Homo sapiens, UniProt O15146)	4.21
MELK (Homo sapiens, UniProt Q14680)	3.6
DYRK1B (Homo sapiens, UniProt Q9Y463)	-0.76
IKBKE (Homo sapiens, UniProt Q14164)	0.36
Cyclin-dependent kinase 2, with cyclin E1 (CDK2, Homo sapiens, UniProt P24941)	0.67

Repeated from above (series 3):
target	effect on	technique	baseline	remaining binding [%]
CDK7 (Homo sapiens, UniProt P50613)	binding	competition with immobilised ligand	–	100
CDK2 (Homo sapiens, UniProt P24941)	kinase binding	KINOMEscan	DMSO control	91
STK17B (Homo sapiens, UniProt O94768)	kinase binding	KINOMEscan	DMSO control	99
FGFR3 (Homo sapiens, UniProt P22607, G697C)	binding	competition with immobilised ligand	–	100
COQ8B (Homo sapiens, UniProt Q96D53)	kinase binding	KINOMEscan	DMSO control	96
TGFBR2 (Homo sapiens, UniProt P37173)	binding	competition with immobilised ligand	–	100
TSSK3 (Homo sapiens, UniProt Q96PN8)	kinase binding	KINOMEscan	DMSO control	98
PIM1 (Homo sapiens, UniProt P11309)	binding	competition with immobilised ligand	–	100
PLK1 (Homo sapiens, UniProt P53350)	binding	competition with immobilised ligand	–	100
